Measured values pooled from the literature.
Each line is one published result; not all experiments were run side by side. ± gives the spread as reported.

Structure (SMILES)	test	test system	setting	scale	endpoint	result
CCO[C@H]1CCN(Cc2c(OC)cc(C)c3[nH]ccc23)[C@H](c2ccc(C(=O)O)cc2)C1	–	PNH patients, active haemolysis	oral, 25 mg, 4 weeks, treatment	–	incidence upper respiratory infection	0%
CNCc1ccc(-c2[nH]c3cc(F)cc4c3c2CCNC4=O)cc1	–	patients	oral, 600 mg twice daily, grade 4	–	asthenia/fatigue incidence	0%
CCCCOc1ccc([C@H]2CC[C@H](CCC)CC2)c(F)c1F	item: compound	human pregnant women, male fetuses, cord serum	dose not given, paired maternal-cord samples, mean	–	concentration	7.73 ng/mL
Cc1cc(C)cc(NC(=O)CN(C)S(=O)(=O)c2ccc3[nH]c4c(c3c2)CCCC4)c1	haemolysis	sheep erythrocytes	1 h, pH 7.5	–	HC50	> 128 µg/mL
CNCCOC12CC3(C)CC(C)(CC(Cn4ncc(-c5ccc(N6CCc7cccc(C(=O)Nc8nc9ccccc9s8)c7C6)nc5C(=O)O)c4C)(C3)C1)C2	–	beagle dog, male, anaesthetised	intravenous bolus, 0.03 mg/kg, 90 min	relative to: baseline	heart rate change	-4%
O=S(=O)(NC1(Cc2ccc(F)cc2)CC1)c1cccc(Cl)c1O	colloidal aggregate formation, dynamic light scattering	50 mM potassium phosphate buffer	200 µM, pH 7.0, 1% DMSO	higher = more aggregation	DLS scattered light intensity	671000 counts/s
Cc1cc(Nc2ccc(S(F)(F)(F)(F)F)cc2)n2nc(C(C)(F)F)nc2n1	–	Plasmodium falciparum malaria patients	oral, 250 mg	–	adverse event Chills	0%
O=C1CCc2ccc(OCCCCN3CCN(c4cccc(Cl)c4Cl)CC3)cc2N1	item: Tremor	genotyped patients, CYP2D6 poor metabolizers	dose not given, long-acting oral or depot	–	adverse event incidence	10%
C=CC(=O)N1CCC(c2ccc(C(N)=O)c(-c3ccc(Oc4ccccc4)cc3)n2)CC1	–	relapsed/refractory mantle cell lymphoma patients	oral, dose not given, part, all doses, CTCAE v4.03	–	serious TEAE rate	0%
O=C(Nc1nc2cccc(-c3ccc(CN4CCS(=O)(=O)CC4)cc3)n2n1)C1CC1	item: joint swelling	human rheumatoid arthritis patients	oral, 150 mg once daily, 4 weeks, regardless of relatedness	–	treatment-emergent adverse events	0%
O=C(OC(C(F)(F)F)C(F)(F)F)N1CCN(Cc2cccc(Oc3ccccc3)c2)CC1	PET blocking study	rhesus monkey, brain STR	0.03 mg/kg, compound pretreatment, added: [18F]T-401 tracer	–	k2	0.031 min⁻¹
CC(Cc1c(Cl)cccc1Cl)NS(=O)(=O)c1cnn(C)c1C(=O)O (centres unmarked)	colloidal aggregate formation, dynamic light scattering	50 mM potassium phosphate buffer	200 µM, pH 7.0, 1% DMSO	higher = more aggregation	DLS scattered light intensity	1.38e+06 counts/s
CCc1cc(C(=O)NC)c2nccc(N3CCc4c(cc(Cn5ccnc5)cc4-c4cn(C)nc4C(F)(F)F)C3=O)c2c1	–	Sprague Dawley rats	oral, 100 mg/kg twice daily, 7 days	–	blood CHCM	314 ± 6.14 g/L
COc1ccnc(C(=O)NCC(=O)O)c1O	soil adsorption	soil	pH 6.9, organic carbon 0.8 %	–	Freundlich coefficient KF	7.08 mL/g
COc1ccc(-c2c(-c3ccc(C#N)c(F)c3)nc(N3CCC(N)CC3)n(C)c2=O)cc1F	–	neuroendocrine neoplasm patients	oral, 60 mg, dose expansion	–	discontinuation due to AE	0%
CO[C@@H]1[C@H](O)[C@@H](CO)O[C@H]1n1c([N+](=O)[O-])nc2c(=O)[nH]c(N)nc21	depurination, RP-HPLC	citrate-phosphate buffer 0.5 mM	65 min, pH 5, 37 °C	–	nucleoside remaining fraction	0.949
CCO[C@H]1CCN(Cc2c(OC)cc(C)c3[nH]ccc23)[C@H](c2ccc(C(=O)O)cc2)C1	–	human moderate hepatic impairment, plasma	oral, 200 mg single dose, median	–	total half-life	23 h
CCOC(=O)c1ccc2nc(NC(=O)c3cccs3)sc2c1	haemolysis	sheep erythrocytes	1 h, pH 7.5	–	HC50	> 128 µg/mL
COc1ncc(-c2nc3c(n2C(C)C)[C@H](c2ccc(Cl)cc2)N(c2cc(Cl)cn(C)c2=O)C3=O)c(OC)n1	LC-MS/MS	human, plasma	oral, 20 mg, cycle 1 day 8, low-dose arm	–	Cmax	184 ng/mL
O=C(COc1ccc(Cl)cc1)NC12CC(c3nnc([C@H]4C[C@@H](OC(F)(F)F)C4)o3)(C1)C2	–	human both sexes	oral, 800 mg single dose	–	participants with TEAE	66.7%
CC[C@H](C)[C@H](NC(=O)[C@H](Cc1ccccc1)NC(=O)[C@H](CCC(=O)O)NC(=O)[C@H](CCCCNC(=O)COCCOCCNC(=O)COCCOCCNC(=O)CC[C@H](NC(=O)CCCCCCCCCCCCCCCCC(=O)O)C(=O)O)NC(=O)[C@H](C)NC(=O)[C@H](C)NC(=O)[C@H](CCC(N)=O)NC(=O)CNC(=O)[C@H](CCC(=O)O)NC(=O)[C@H](CC(C)C)NC(=O)[C@H](Cc1ccc(O)cc1)NC(=O)[C@H](CO)NC(=O)[C@H](CO)NC(=O)[C@@H](NC(=O)[C@H](CC(=O)O)NC(=O)[C@H](CO)NC(=O)[C@@H](NC(=O)[C@H](Cc1ccccc1)NC(=O)[C@@H](NC(=O)CNC(=O)[C@H](CCC(=O)O)NC(=O)C(C)(C)NC(=O)[C@@H](N)Cc1cnc[nH]1)[C@@H](C)O)[C@@H](C)O)C(C)C)C(=O)N[C@@H](C)C(=O)N[C@@H](Cc1c[nH]c2ccccc12)C(=O)N[C@@H](CC(C)C)C(=O)N[C@H](C(=O)N[C@@H](CCCNC(=N)N)C(=O)NCC(=O)N[C@@H](CCCNC(=N)N)C(=O)NCC(=O)O)C(C)C	QT interval corrected for heart rate, 12-lead Holter ECG	healthy human subjects	subcutaneous, 1.5 mg once weekly, 24 h post-dose, steady state	relative to: placebo, time-matched baseline	placebo-subtracted change in QTcI	-4.6 ms
O=c1[nH]ccn1-c1ccc(NS(=O)(=O)c2cc(Cl)cc(Cl)c2O)cc1	colloidal aggregate formation, dynamic light scattering	50 mM potassium phosphate buffer	200 µM, pH 7.0, 1% DMSO	higher = more aggregation	DLS scattered light intensity	558000 counts/s
Cc1cc(Nc2ncnc3ccc(NC4=NC(C)(C)CO4)cc23)ccc1Oc1ccn2ncnc2c1	–	human, plasma	oral, 300 mg, day 1, single dose alone	–	Cmax, geometric mean	302 ng/mL
Cc1cc(NC2CCN(C(=O)OC3CCN(C(=O)/C=C/CN(C)C)C3)CC2)n2ncc(C(C)C)c2n1 (centres unmarked)	Phase I dose escalation CTCAE v4.0, item: pain in extremity	patients with advanced solid tumours	dose not given, TIW dosing any grade	–	patients with adverse event	0%
CC(C)CC(C#N)NS(=O)(=O)c1cccc(Cl)c1O (centres unmarked)	colloidal aggregate formation, dynamic light scattering	50 mM potassium phosphate buffer	200 µM, pH 7.0, 1% DMSO	higher = more aggregation	DLS scattered light intensity	385000 counts/s
CCn1ncc2c1-c1cnc(N)c(c1)O[C@H](C)c1cc(F)ccc1-c1nn(C)nc1C2	–	female athymic nude mice, sample B PDX	oral, 1 mg/kg twice daily for 21 days, 12 h	–	unbound plasma trough concentration	12 ± 2 nM
CCn1cc(C(=O)N2CCOCC2)c(=O)c2cc(NC3Cc4ccccc4C3)cnc21	–	human, fed	oral suspension, 300 mg/day twice daily, day 1, arithmetic mean	–	AUC(0-12)	4480 ng·h/mL

Structure (SMILES)	test	test system	setting	scale	endpoint	result
C[C@]1(Cn2ccnn2)[C@H](C(=O)O)N2C(=O)C[C@H]2S1(=O)=O	–	human whole blood	concentration not given, 24 h, 4 °C	–	deviation from nominal concentration	7.8%
COc1cccc(OC)c1-c1cc(C(=O)NC2(C(=O)O)C3CC4CC(C3)CC2C4)nn1-c1ccc(C(=O)N(C)CCCN(C)CCCN(C)C(=O)CN2CCN(CC(=O)[O-])CCN(CC(=O)[O-])CCN(CC(=O)[O-])CC2)cc1C(C)C.[177Lu+3] (centres unmarked)	–	mouse HT-29 xenograft	24 h, biodistribution	relative to: tumour over large intestine	tumour-to-large intestine ratio	61.3
O=C(O)CCC(=O)O.[2H]C([2H])([2H])Oc1cc(C)c2[nH]ccc2c1CN1CC[C@@H](C2CC2)C[C@H]1c1ccc(C(=O)O)cc1	–	healthy Chinese subjects	600 mg, single ascending dose	–	TEAE decreased white cells	0%
Cc1cc(C)c(CNC(=O)c2cc(Cl)c3c(c2C)O[C@@](C)([C@H]2CC[C@H](N(C)C)CC2)O3)c(=O)[nH]1	–	relapsed/refractory NHL patients	oral, 200 mg once daily, onset after cycle 1 day 1	–	grade ≥3 adverse event Thrombocytopenia	4.2%
Cl.[2H]C([2H])([2H])CC(=O)c1cnc(NC(=O)C2CC2)cc1Nc1cccc(-c2ncn(C([2H])([2H])[2H])n2)c1OC	geometric mean	human	oral, 10 mg single dose, fasted, liquid	–	AUC(0-inf)	816 ng·h/mL
O=C(Cc1ccc(-c2nn[nH]n2)nc1)Nc1cc(F)cc(Cl)c1O	colloidal aggregate formation, dynamic light scattering	50 mM potassium phosphate buffer	200 µM, pH 7.0, 1% DMSO	higher = more aggregation	DLS scattered light intensity	1.58e+06 counts/s
Cc1nc(-c2ccc(OCC(C)C)c(C#N)c2)sc1C(=O)O	–	healthy Chinese subjects	oral, 40 mg, fed	–	pyrexia incidence	5%
COC(=O)C(Cc1cccc(C)c1I)NC(=O)CNCc1ccccc1 (centres unmarked)	–	beagle dog	1 µM	–	half-life	> 3 h
CC(CNS(=O)(=O)c1cnn(C)c1C(=O)O)c1c(Cl)cccc1Cl (centres unmarked)	colloidal aggregate formation, dynamic light scattering	50 mM potassium phosphate buffer	200 µM, pH 7.0, 1% DMSO	higher = more aggregation	DLS scattered light intensity	509000 counts/s
CCCOc1ccc([C@H]2CNC(=O)N2c2ccc3[nH]cnc3c2)cc1	–	human volunteers fasted, plasma	oral tablet, 200 mg single dose, crossover, geometric mean	–	AUC(0-tlast)	2320 ng·h/mL
COc1cc(-c2cnc3cc(OCCN4CCOCC4)ccn23)cc2c1C(=O)N(CC(F)(F)F)CC2	LC-MS	human, plasma	oral, 350 mg once daily, day 8, co-dosed with methotrexate	arithmetic mean	Ctrough	70.1 ng/mL
CC(C)c1nc(N(C)S(C)(=O)=O)nc(-c2ccc(F)cc2)c1/C=C/[C@@H](O)C[C@@H](O)CC(=O)O	–	cynomolgus monkey, suspended hepatocytes	dose not given	unbound, scaled in vitro	active uptake clearance	104 mL/min/kg
C=CC(=O)N1CCC([C@@H]2CCNc3c(C(N)=O)c(-c4ccc(Oc5ccccc5)cc4)nn32)CC1	–	rat plasma	400 ng/mL, 3 h, room temperature	relative to: nominal concentration	stability relative error	-3.1%
CCCCCCCCCCCCCCCC(=O)N[C@@H](CCC(=O)NCCCC[C@H](NC(=O)[C@H](C)NC(=O)[C@H](C)NC(=O)[C@H](CCC(N)=O)NC(=O)CNC(=O)[C@H](CCC(=O)O)NC(=O)[C@H](CC(C)C)NC(=O)[C@H](Cc1ccc(O)cc1)NC(=O)[C@H](CO)NC(=O)[C@H](CO)NC(=O)[C@@H](NC(=O)[C@H](CC(=O)O)NC(=O)[C@H](CO)NC(=O)[C@@H](NC(=O)[C@H](Cc1ccccc1)NC(=O)[C@@H](NC(=O)CNC(=O)[C@H](CCC(=O)O)NC(=O)[C@H](C)NC(=O)[C@@H](N)Cc1cnc[nH]1)[C@@H](C)O)[C@@H](C)O)C(C)C)C(=O)N[C@@H](CCC(=O)O)C(=O)N[C@@H](Cc1ccccc1)C(=O)N[C@H](C(=O)N[C@@H](C)C(=O)N[C@@H](Cc1c[nH]c2ccccc12)C(=O)N[C@@H](CC(C)C)C(=O)N[C@H](C(=O)N[C@@H](CCCNC(=N)N)C(=O)NCC(=O)N[C@@H](CCCNC(=N)N)C(=O)NCC(=O)O)C(C)C)[C@@H](C)CC)C(=O)O	HPLC-MS/MS	Sprague-Dawley rat, plasma	subcutaneous, 0.06 mg/kg, day 1, before first injection	–	baseline plasma concentration	0 ng/mL
CC(=O)N(C)[C@H]1CCN(C(=O)c2cnc3c(c2)C[C@](C)(c2ccc(F)cc2)N3)C1	–	healthy male subjects, multiple rising dose	oral, 30 mg once daily	–	serious adverse events	0%
CNC(=O)c1ccc(-c2cnc3ncc(Cc4ccc5ncccc5c4)n3n2)cc1F	item: Dyspepsia	hepatocellular carcinoma patients	oral, 600 mg twice daily, expansion cohort, grade 3-4	–	patients with adverse event	0%
CCOc1c([C@H](C)n2nc(C)c3c(N)ncnc32)cc(Cl)c(F)c1[C@@H]1CNC(=O)C1	item: ΔQTcF > 60 ms	previously treated B-cell malignancy	oral, dose not given, all doses, overall population	–	share of ECG observations	0.6%
CCCCC1=NC2(CCCC2)C(=O)N1Cc1ccc(-c2ccccc2S(=O)(=O)Nc2noc(C)c2C)c(COCC)c1	–	healthy adult volunteers, plasma	oral, 800 mg, single dose, fed, crushed tablet	–	Cmax	17300 ng/mL
C=CC(=O)NC1CCN(c2ncc3ncnc(Nc4ccc(Oc5ccc6c(c5)ncn6C)c(C)c4)c3n2)CC1	item: total radioactivity	healthy male human, whole blood and plasma	oral, 60 mg, 264 h, geometric mean	–	blood-to-plasma ratio	3.79
CC(C)(C(=O)N1CCOc2c(C#N)cncc2C1)C(F)F	item: Constipation	human	oral, 10 mg, CSF pharmacokinetic cohort	–	subjects with adverse event	0%
Cc1ccc([C@@H]2O[C@H](CO)[C@@H](O)[C@H](O)[C@H]2O)cc1Cc1ccc(-c2ccc(F)cc2)s1	–	Japanese type 2 diabetes patients	25 mg, day 18, 24 h urine collection	relative to: baseline	urinary potassium excretion change	-4.96 mEq
CN(CCCN1CCN(C(=O)CN2CCN(CC(=O)[O-])CCN(CC(=O)[O-])CCN(CC(=O)[O-])CC2)CC1)c1ccc2nccc(C(=O)NCC(=O)N3CC(F)(F)C[C@H]3C#N)c2c1.[68Ga+3]	–	mice, HT-1080.hFAP and HT-1080 wild-type xenografts, intestine	iv, 500 pmol, 4 h post injection	–	uptake	0.1 %IA/g
O=C1CC[C@H](N2Cc3cc(N4CCN(CC5CCN(c6ccc([C@@H]7c8ccc(O)cc8CC[C@@H]7c7ccccc7)cc6)CC5)CC4)ccc3C2=O)C(=O)N1	–	EpiIntestinal microtissues incubation buffer	40 µM, 3 h	–	buffer concentration	19.7 µM
NC(=O)N1c2ccccc2C=Cc2ccccc21	item: gastrointestinal disorders (SOC)	human male	oral, dose not given, CTCAE on-treatment AEs	–	adverse events incidence	40%
CNC(=O)c1ccc(-c2cnc3ncc(Cc4ccc5ncccc5c4)n3n2)cc1F	–	Japanese patients	oral, 400 mg, grade 3/4	–	Agitation dose reduction/interruption	0%
CCNCCCNC/C=C\CNCCCNCC	LC-MS/MS	cancer patients, plasma	intravenous infusion, 150 mg, 60 min infusion, median, cycle 1	–	volume of distribution	6.69 L/kg
